Experimental data from different studies.
Every numbered part comes from another study and shows a few of its results, in no order. Substitutions count along the parent as printed.

Set 1
Target: NFE2L1, bZIP domain (human)
Method: DHFR protein complementation
Medium: yeast
Setting: single substitutions, most at no-binding floor
Relative to: wild-type JUN-FOS pair
Reading: higher = stronger binding
Starting sequence: JUN, bZIP domain (human); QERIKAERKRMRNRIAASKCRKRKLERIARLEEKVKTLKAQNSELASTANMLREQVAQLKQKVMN; partner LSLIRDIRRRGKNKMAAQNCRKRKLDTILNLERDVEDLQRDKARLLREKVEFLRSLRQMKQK
| Substitution | binding fitness [natural log] |
| --- | --- |
| L31H | -1.5 |
| R30L | -1.29 |
| L45M | -1.49 |
| E33Q | -1.34 |
| Q55C | -1.39 |
| Q41D | -1.45 |
| Q41I | -1.38 |
| R30F | -1.53 |
| T37E | -1.57 |
| Q41M | -1.49 |
| Q41E | -1.13 |
| E54N | -1.46 |
| K39D | -1.49 |
| N42H | -1.24 |
| A46E | -1.56 |
| E54P | -1.54 |
| V35D | -1.47 |
| L38N | -1.48 |
| E33N | -1.48 |
| T37S | -1.53 |
| I28H | -1.43 |

Set 2
Target: Interferon regulatory factor 7, full length, phosphomimetic (IRF7, Homo sapiens, UniProt Q92985, residues 1-503, S101K/S471D/S472D/S475D/S476D/S477D/S483D/S484D/S487D)
Sequence of UniProt Q92985 (whole entry, unmodified, looked up): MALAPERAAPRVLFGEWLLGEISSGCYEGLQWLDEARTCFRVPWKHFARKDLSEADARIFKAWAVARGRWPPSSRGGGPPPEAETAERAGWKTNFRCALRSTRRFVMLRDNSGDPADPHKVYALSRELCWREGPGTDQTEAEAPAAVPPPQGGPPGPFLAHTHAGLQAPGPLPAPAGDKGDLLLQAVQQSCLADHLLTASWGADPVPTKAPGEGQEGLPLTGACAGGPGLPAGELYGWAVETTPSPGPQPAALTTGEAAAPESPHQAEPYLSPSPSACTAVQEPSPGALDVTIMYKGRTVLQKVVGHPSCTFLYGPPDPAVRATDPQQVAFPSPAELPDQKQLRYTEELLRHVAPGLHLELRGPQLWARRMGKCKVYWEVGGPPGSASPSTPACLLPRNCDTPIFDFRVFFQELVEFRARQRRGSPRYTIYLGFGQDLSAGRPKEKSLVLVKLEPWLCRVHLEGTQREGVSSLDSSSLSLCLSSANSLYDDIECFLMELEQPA
Method: protein-binding microarray
Form: double-stranded DNA, one strand shown
Medium: in vitro
Tested at: 250 nM
Setting: 60-bp whole probe
Together with: salmon DNA 0.4 mg/ml
Relative to: random background probes
Reading: higher = stronger binding
Shared flanks, not repeated: GCCTAGCAC … GTCTTGATTCGCTTGACGCTGCTG
| Strand | log fluorescence [z-score] |
| --- | --- |
| TAAGGTCTCCTTATCCTTTAGTGCTAG | 0.43 |
| GACGGTTTCGAGACTGGGGACGTGCTA | 4.72 |
| TTAGATTCCAGTTTCGTTTAGTGCTAG | 10.5 |
| TTAGTACTGAGACTGGATTAGTGCTAG | 0.482 |
| TCCTGCTGTACCCCTAGGGCGTGCTAG | -0.217 |
| TTACGTCTCGGTTTCGGTTAGTGCTAG | 9.29 |
| GACGGTCTCCTACTGCTTACGTGCTAG | -0.501 |
| TTATGTCTGGGTATTTTTTCGTGCTAG | -0.0196 |
| TCAAATTTGCTTTAGTCACTGTGCTAG | 0.143 |
| TTAGAACCGGGGACTGGATTAGTGCTA | -0.232 |
| GCAGATTGGGTTTCAGGGCTGTGCTAG | -0.777 |
| GATGGTCTCGGTTTCGGGACGTGCTAG | 8.5 |
| GACTGTCTCGGTATCGGGACGTGCTAG | 0.95 |
| CTTGCTTTATGTGTAGGTCTGTGCTAG | -0.0811 |
| GCCGGACTGGGTATCGGGACGTGCTAG | -0.321 |
| AATTTGAGAACGGAAACCAAGTGCTAG | 2.57 |
| GTGTTTCTCAAATGTTTTGTTGTGCTA | 2.04 |
| GACCGTTTCCTTCTCCTGACGTGCTAG | 2.35 |
| TTAGATTCCCTTTTCCTTTAGTGCTAG | 3.61 |
| GACGGTATCCATCTCCTGACGTGCTAG | -0.0769 |
| TGAGGTATCCTTATCCTTTAGTGCTAG | -0.124 |

Set 3
Target: RNA binding protein fox-1 homolog 2, RRM domain, GST-SBP tag (RBFOX2, Homo sapiens, UniProt O43251-10, residues 100-194)
Method: RNA Bind-n-Seq
Form: RNA
Medium: in vitro
Tested at: 365 nM
Setting: natural RNA segment, single round, ends assumed
Relative to: no-protein control
Reading: higher = stronger binding
Residues (chain): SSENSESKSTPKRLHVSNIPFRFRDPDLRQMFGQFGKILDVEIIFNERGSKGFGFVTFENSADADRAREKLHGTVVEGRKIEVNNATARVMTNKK
| Strand | RBNS enrichment (R) |
| --- | --- |
| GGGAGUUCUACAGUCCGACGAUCAAGCAAAGUAUCAACGCUUUCUGAUUUCCAGUACUGGGUGUUGAACCCAGAGCCUUUUAUAUGCUGGGCAAGUGCUCUACAGUUUUCACUCUUUAUUCUGAGACAGGGUCUGGAAUUCUCGGGUGCCAA | 0.338 |
| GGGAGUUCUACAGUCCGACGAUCGUUGAGAAAGUUGAGGAAUUUCCUCUACCACCUUUGUUGCUUGAAGAAAAACAUGUCUUUUCAAAAUGAGAGGCUUUCAUUGAAGAAAAGAAAAAAACAACAGUUAAAAGUGGAAUUCUCGGGUGCCAA | 0.517 |
| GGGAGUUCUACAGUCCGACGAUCGAAAUUUGCAGCUUCUCUAGUUAGAAAUGUAUUUCUUACAGCUUUUUAAGACUUUGUCAUCCGUUCUAGUGUAUAUGCAGAGCCUGUUGUGUGUGUGGACUGGUUAUAGAUGGAAUUCUCGGGUGCCAA | 2.35 |
| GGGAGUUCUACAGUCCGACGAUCAAGUUUGAAGAGCCAUUUUGGUAAACGGUUUUUAUUAAAGAUGCUAUGGAACAUAAAGUUGUAUUGCAUGCAAUUUGAAGUAACUUAUUUGACUAUGAAUGUUAUCGGAUUGGAAUUCUCGGGUGCCAA | 0.626 |
| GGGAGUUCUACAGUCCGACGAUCCAGUAGGCAGGCUGAGUGGCCCAGAGCACUCCUGGAAGUGGGACUCCCCUGCCUUGCAAAUGUGCCUCUCCAGACUGCUCCUGCACUUACCCCCUCCCCGCAGCACCUUCUGGAAUUCUCGGGUGCCAA | 4.2 |
| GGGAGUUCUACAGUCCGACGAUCUUUUGGUUCUUGGCUUGGGGCUUUUUGUUGUUGUUGUUCUUAAUAAUAUGAGAAUCCAGUUCUCAUGACAAGAACCAGUUUAAAAACUGCUCGUUCUUAAAAAGGUAAAAUGGAAUUCUCGGGUGCCAA | 0.672 |
| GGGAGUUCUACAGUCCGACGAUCCUUUUUCUAUUUUCUGAUUUAAAAGUCGCUUUUGAAUAUGACCAUGAGAAACCAAGAAAUGCUGCUUGUGUGGUGCUCUGCUUCCUGAGGAUUUGGCUGGAAGGGGAUUCUGGAAUUCUCGGGUGCCAA | 0.881 |
| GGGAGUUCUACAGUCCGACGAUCGGGCCAGGGGUCUCCAGCAUGACUUGUUUGCUCUCCCUCCCCCACCCUCACUCCUACCUCCCAUAGAAGUGUAUUCUUAUCCCUAGUUCCUGUCUGAGUAAGCCAGGGUGUGGAAUUCUCGGGUGCCAA | 6 |
| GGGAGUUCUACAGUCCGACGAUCUUUUCUUGUAAAUGUGUUGGACAAAUGUGAAGAUGCAUUGUAGUUUAACCAUAUGCCCACAUUUAGUCUCUUUAUUCCUAGUUGGUGAGAAACCUGUAUCUUUCUAUGCUUGGAAUUCUCGGGUGCCAA | 0.343 |

Set 4
Target: RING finger protein unkempt homolog, zinc fingers 1-6, SBP tag (UNK, Homo sapiens, UniProt Q9C0B0, residues 30-357)
Sequence of UniProt Q9C0B0 (30-357, looked up): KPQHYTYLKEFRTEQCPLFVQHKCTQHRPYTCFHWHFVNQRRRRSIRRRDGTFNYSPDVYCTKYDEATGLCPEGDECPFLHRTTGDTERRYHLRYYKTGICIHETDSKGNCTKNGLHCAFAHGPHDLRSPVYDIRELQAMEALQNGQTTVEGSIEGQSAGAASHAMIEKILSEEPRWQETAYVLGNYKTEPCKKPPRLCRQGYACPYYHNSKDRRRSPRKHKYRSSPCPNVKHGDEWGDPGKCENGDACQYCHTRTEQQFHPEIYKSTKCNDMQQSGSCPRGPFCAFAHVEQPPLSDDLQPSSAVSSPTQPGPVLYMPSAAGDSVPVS
Method: RNA Bind-n-Seq
Form: RNA
Medium: in vitro
Tested at: 100 nM
Setting: RNA with constant flanks, vertebrate orthologous sites, ends assumed
Relative to: input RNA pool
Reading: higher = stronger binding
| Strand | bound/input enrichment [ratio] |
| --- | --- |
| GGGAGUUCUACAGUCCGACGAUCACCCCCCACUCCCUGUAAGAGGGAAUGGGGGAAGCCUGAUGACCCUCAGCUGUUCCAAUCUAGUAUUUUUUUUUCUUUUUUAAAAUUACUGUAUUUAUUAUGACGAUGGUGACUCCCCAGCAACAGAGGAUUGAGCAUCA | 1.99 |
| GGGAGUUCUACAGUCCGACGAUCUCAAGCUGUUCUUUCACCUUUCCUGUAAAUAAUGGAUGAUCUUUUUAAAAAAAAAUUUUUAAAUGCUGUUUUAACAGUGUGGGUAGACCAUAAAUGUAUGUGUUGAAUUUAUUCAUUUUUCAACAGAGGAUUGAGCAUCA | 0.409 |
| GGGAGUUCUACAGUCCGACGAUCUUGGUUUGGGGUAGAGGGGAGGGAAGGGCAGGAUGGUAUGGAAUCUCUAGGGUAUAUGGGUAGUUAGGGUACACAGUUAGUUCUAAGUGGGCCUUUAUGUUAAAAAUUUUUGGGAGGUGACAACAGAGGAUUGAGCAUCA | 1.91 |
| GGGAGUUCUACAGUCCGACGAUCUAUUGUAUGUAGAGAAUAAUUUUCAUUGGCCCCUAUUGUGAAAUUCCCUAGCAGUUUAUUUAGAAUCUUAAUUUCUCUAAUUCAGGCUCACUGUAUUAGUCAUUUUUAGCUCAUAAUUAACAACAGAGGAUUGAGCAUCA | 1.28 |
| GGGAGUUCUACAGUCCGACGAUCGCUCUAGUUCUUAACAACCGACACUCCUAAAAGAUUUAGAAAAAAGUUUACAACAUAAUCUAGUUUACAGAAAAAUCUUGUGCUAGAAUACUUUUUAAAAGGUAUUUUGAAUAUCAUUAACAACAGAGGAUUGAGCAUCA | 0.636 |
| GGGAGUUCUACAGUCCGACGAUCAACUGCUGGAGCAGAGUGCUCUGUCGGCACCAGUGGCCACCAUCCCUUCACACCACUGUCCUACUUACAGGAAUUUAAUAUUUUUAAAAGUUUUACAAUUCUGUAUAUUCAAAGAUUGUUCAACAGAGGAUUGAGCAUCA | 0.25 |
| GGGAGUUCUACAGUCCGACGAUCAAGAUGGUGGUUGUACAUUAUUUCAUUCAGAAAAUAUGAGAACUCAUUUUGUUUUGAAGCUAGGUGUUAAACUGGAAUAGCUAUUACGUUCUUGAAAAUGGGGCAGUUGUGCCCUAACCUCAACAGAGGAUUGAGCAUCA | 0.594 |
| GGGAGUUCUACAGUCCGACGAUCUGUCUGCCUCAUUCUAAAAUUUACACAGUAGACCAUUUGUCAUCCAUGCUGUCCCACAAAUAGUUUUUUGUUUACGAUUUAUGACAGGUUUAUGUUACUUCUAUUGGAAUUUCUGUAUUUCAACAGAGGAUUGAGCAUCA | 1.41 |

Excerpt of the above (set 1):
| Substitution | binding fitness [natural log] |
| --- | --- |
| L45M | -1.49 |
| E33N | -1.48 |
| R30L | -1.29 |
| N42H | -1.24 |
| E54P | -1.54 |
| Q55C | -1.39 |
| E33Q | -1.34 |
| T37S | -1.53 |
| Q41M | -1.49 |
| K39D | -1.49 |
